{"data": "Experimental data gathered from unrelated publications", "note": "Compare with care: the assays were run in different laboratories. Values joined by “and” are separate records of one study, mostly repeats; a detail may differ. ± gives the spread as reported."}
{"Structure (SMILES)": "C=CC(=O)Nc1cc(Nc2nccc(-c3cn(C)c4ccccc34)n2)c(OC)cc1N(C)CCN(C)C", "assay": "storage stability", "test system": "human plasma", "setting": "5 h, -80 °C, LLOQ level", "measurement": "recovery", "result": "98.7%"}
{"Structure (SMILES)": "O=C(N[C@H](Cc1c[nH]c2ccccc12)C(=O)Nc1ccncc1)c1ccc(N2CCN(c3ccc(F)cc3F)CC2)cc1F", "test system": "Swiss Webster mouse, female, intestine", "setting": "oral, 50 mg/kg, 8 h, 20% Kolliphor vehicle", "measurement": "concentration", "result": "45.2 µM"}
{"Structure (SMILES)": "CC(C)n1c(Nc2cccnc2)nc2cnc(Nc3ccc(N4CCN(C)CC4)cc3)nc21", "assay": "measured: white blood cell count elevated", "test system": "healthy male subjects", "setting": "oral, 100 mg, study, added: gemfibrozil", "measurement": "subjects with adverse event", "result": "7.1%"}
{"Structure (SMILES)": "Cc1cccc(CNC(=O)c2cn(CCNC(=O)c3ccccc3S)c3cc4c(cc3c2=O)OC(F)(F)O4)n1", "test system": "Sprague-Dawley rat, male, plasma", "setting": "intramuscular, 30 mg/kg of parent compound", "measurement": "AUC(0-t)", "result": "204 ± 42.9 ng·h/mL"}
{"Structure (SMILES)": "N#Cc1ccc2c(c1)[C@H]1CCCN(C(=O)c3ccc4[nH]cnc4c3)[C@H]1C2", "test system": "human", "setting": "240 mg, day 7", "how to read": "relative to: baseline", "measurement": "cortisol level change", "result": "-103 nmol/L"}
{"Structure (SMILES)": "Cc1ccc(Sc2ccccc2N2CCNCC2)c(C)c1", "assay": "measured: eosinophil count increased", "test system": "healthy adult women", "setting": "oral, 10 mg daily, 12 days", "measurement": "participants with TEAE", "result": "0%"}
{"Structure (SMILES)": "Cc1c(Cl)c(C)[n+]([O-])c(Cl)c1-c1noc(-c2cc(O)c(O)c([N+](=O)[O-])c2)n1", "assay": "measured: Hyperhidrosis", "test system": "healthy Chinese subjects", "setting": "oral, 50 mg, 20 days", "measurement": "adverse drug reaction incidence", "result": "0%"}
{"Structure (SMILES)": "N#Cc1ccc(-c2cnc3ccc(-c4ccc(C(=O)N5CCOCC5)cc4)cn23)cc1", "assay": "measured: PR interval", "test system": "healthy volunteers", "setting": "oral, 10 mg, fed, time-averaged", "measurement": "placebo-corrected change from baseline", "result": "-1.5 ms"}
{"Structure (SMILES)": "CCCCCCCOc1ccc(CCC(N)(CO)CO)cc1C(F)(F)F.Cl", "test system": "healthy men", "setting": "oral, 0.5 mg, day 1", "measurement": "renal clearance", "result": "0.0582 mL/min"}
{"Structure (SMILES)": "Cc1cc(NC2CCN(C(=O)OC3CCN(C(=O)/C=C/CN(C)C)C3)CC2)n2ncc(C(C)C)c2n1 (stereo not drawn)", "assay": "CTCAE v4.0, measured: Flatulence", "test system": "patients with advanced solid tumours", "setting": "oral, dose not given, TIW, grade 3 or higher", "measurement": "patients with TEAE", "result": "0%"}
{"Structure (SMILES)": "O=C(N/N=C/c1ccccc1O)c1ccncc1", "test system": "rat plasma", "setting": "0.24 µM, 7 days, -80 °C, long-term storage", "measurement": "stability", "result": "98.9%"}
{"Structure (SMILES)": "COc1ccc2c(c1)CN(C(=O)CCN1CCC(Cc3ccccc3)CC1)CC[S@@+]2[O-]", "assay": "telemetry", "test system": "conscious male beagle dogs", "setting": "intravenous, 8 mg/kg, 4 h", "measurement": "QT interval", "result": "232 ± 11 ms"}
{"Structure (SMILES)": "N[C@@H](CC(=O)O)C(=O)OC(C(=O)O)c1ccccc1[N+](=O)[O-].O=C(O)C(F)(F)F (mixture of isomers)", "assay": "1H NMR, dark", "test system": "50 mM sodium phosphate", "setting": "concentration not given, pH 9.0, room temperature, 12.5% DMSO-d6", "measurement": "hydrolysis half-life, A isomer", "result": "14.6 ± 0.2 h"}
{"Structure (SMILES)": "C[C@@H]1COCCN1c1cc(C2([S@](C)(=N)=O)CC2)nc(-c2cc[nH]c3nccc2-3)n1", "test system": "Japanese advanced solid tumour patients", "setting": "oral, 240 mg twice daily, CTCAE grade ≥3", "measurement": "Nausea incidence", "result": "0%"}
{"Structure (SMILES)": "COc1ccc2c3c([nH]c2c1)[C@H](CC(C)C)N1C(=O)[C@H](CC(=O)NC(C)C)NC(=O)[C@@H]1C3", "test system": "wild-type mouse", "setting": "oral, 100 mg/kg daily, 23 days", "measurement": "liver to body weight ratio", "result": "5.02% and 4.98%"}
{"Structure (SMILES)": "C[C@@H](Nc1cc(F)cc(F)c1)c1cc(C(=O)N(C)C)cc2c(=O)cc(N3CCOCC3)oc12", "assay": "measured: Hypokalemia", "test system": "advanced solid tumour patients", "setting": "oral, dose not given, dose finding", "measurement": "related serious adverse events", "result": "1.6%"}
{"Structure (SMILES)": "CC(C)(C(=O)N1CCOc2c(C#N)cncc2C1)C(F)F", "assay": "measured: nervous system disorders", "test system": "healthy humans, both sexes", "setting": "oral, 40 mg single dose", "measurement": "subjects with TEAE", "result": "16.7%"}
{"Structure (SMILES)": "Nc1ncnc2c1ncn2[C@H]1C[C@@H]2OP(=O)(O)OC[C@H]3O[C@@H](n4cnc5c(N)ncnc54)C[C@@H]3OP(=O)(O)OC[C@H]2O1", "test system": "non-tumour-bearing mice, blood", "setting": "intravenous, 1 mg/kg", "measurement": "albumin to globulin ratio", "result": "1.35 ± 0.25"}
{"Structure (SMILES)": "O=C1CC[C@H](N2Cc3cc(N4CCN(CC5CCN(c6ccc([C@@H]7c8ccc(O)cc8CC[C@@H]7c7ccccc7)cc6)CC5)CC4)ccc3C2=O)C(=O)N1", "test system": "human", "setting": "oral, 200 mg, added: dabigatran etexilate 75 mg", "measurement": "participants with TEAE dry skin", "result": "0%"}
{"Structure (SMILES)": "CC(C(=O)NCC(=O)NCC(CNC(=O)CNC(=O)C(C)N1CCN(CC(=O)[O-])CCN(CC(=O)[O-])CCN(CC(=O)[O-])CC1)(CNC(=O)CNC(=O)C(C)N1CCN(CC(=O)[O-])CCN(CC(=O)[O-])CCN(CC(=O)[O-])CC1)CNC(=O)CNC(=O)C(C)N1CCN(CC(=O)[O-])CCN(CC(=O)[O-])CCN(CC(=O)[O-])CC1)N1CCN(CC(=O)[O-])CCN(CC(=O)[O-])CCN(CC(=O)[O-])CC1.[Gd+3].[Gd+3].[Gd+3].[Gd+3] (stereo not drawn)", "assay": "ICP-MS", "test system": "cynomolgus monkey, feces", "setting": "5 days post-injection", "how to read": "relative to: dose", "measurement": "cumulative fecal excretion", "result": "0.4%"}
{"Structure (SMILES)": "C=CCN1CC(=O)N2[C@@H](Cc3ccc(O)cc3F)C(=O)N(Cc3cccc(N4CC(N5CCN(CC)CC5)C4)n3)C[C@@H]2N1C(=O)NCc1ccccc1", "test system": "advanced solid tumour patients", "setting": "oral, 100 mg twice daily, grade ≥3, dose-escalation", "measurement": "any treatment-related adverse event", "result": "0%"}
{"Structure (SMILES)": "COc1cc(N2CCC(N3CCN(C)CC3)CC2)ccc1Nc1ncc(Cl)c(Nc2ccccc2P(C)(C)=O)n1", "test system": "nude mice, NCI-H3122 xenograft", "setting": "intraperitoneal, 10 mg/kg every other day, day 16", "measurement": "body weight", "result": "25.2 g and 23.4 g and 25.6 g and 23.2 g and 26.5 g"}
{"Structure (SMILES)": "Cc1cc(C)c(CNC(=O)c2cc(Cl)c3c(c2C)O[C@@](C)([C@H]2CC[C@H](N(C)C)CC2)O3)c(=O)[nH]1", "test system": "human relapsed/refractory NHL", "setting": "oral, 200 mg once daily, onset day 1 to 14", "measurement": "acute respiratory failure grade ≥3", "result": "0%"}
{"Structure (SMILES)": "CCO[C@H]1CCN(Cc2c(OC)cc(C)c3[nH]ccc23)[C@H](c2ccc(C(=O)O)cc2)C1", "test system": "human mild hepatic impairment, plasma", "setting": "oral, 200 mg single dose, median", "measurement": "unbound half-life", "result": "13.9 h"}
{"Structure (SMILES)": "COc1ccc2[nH]c([S+]([O-])Cc3ncc(C)c(OC)c3C)nc2c1 (stereo not drawn)", "test system": "healthy Chinese volunteers, plasma", "setting": "oral, 20 mg, enteric-coated tablets, CYP2C19 poor metabolizers", "measurement": "AUC(0-inf)", "result": "3880 ± 1400 ng·h/mL"}
{"Structure (SMILES)": "FC(F)(F)c1ccc(CNc2ccc(Cc3c[nH]c4ncc(Cl)cc34)cn2)cn1", "assay": "measured: Anemia", "test system": "patients with advanced solid tumours, non-TGCT cohort", "setting": "oral, 1000 mg/day, grade 3 or higher", "measurement": "treatment-related adverse events", "result": "0%"}
{"Structure (SMILES)": "CCN1/C(=C/C(C)=O)Sc2ccc(F)cc21", "test system": "cynomolgus monkey", "setting": "oral, 30 mg/kg, 24 h post-dose", "measurement": "mean blood pressure", "result": "87 ± 2 mmHg"}
{"Structure (SMILES)": "C=CCn1c(=O)c2cnc(Nc3ccc(N4CCN(C)CC4)cc3)nc2n1-c1ccc2c(n1)[C@@](O)(CC)CC2", "test system": "female NOD/SCID mouse OVCAR-3 xenograft, plasma", "setting": "oral, 90 mg/kg once daily, :2", "measurement": "Cmax", "result": "6380 ng/mL"}
{"Structure (SMILES)": "O=C1NC(=O)/C(=C/c2ccc3ncnc(N4CCCCC4)c3n2)S1", "test system": "NSG mice", "setting": "dose not given, day 3", "measurement": "body weight", "result": "24.1 g and 18.5 g and 16.7 g and 22.5 g"}
{"Structure (SMILES)": "C[C@@H](O)CCOC(=O)C[C@@H](C)O", "test system": "human", "setting": "oral drink, dose not given, 30 min post dose, mean", "measurement": "heart rate", "result": "75 beats/min"}
{"note": "For quick reference, copied from above:"}
{"Structure (SMILES)": "CC(C)n1c(Nc2cccnc2)nc2cnc(Nc3ccc(N4CCN(C)CC4)cc3)nc21", "assay": "measured: white blood cell count elevated", "test system": "healthy male subjects", "setting": "oral, 100 mg, study, added: gemfibrozil", "measurement": "subjects with adverse event", "result": "7.1%"}
{"Structure (SMILES)": "Cc1cccc(CNC(=O)c2cn(CCNC(=O)c3ccccc3S)c3cc4c(cc3c2=O)OC(F)(F)O4)n1", "test system": "Sprague-Dawley rat, male, plasma", "setting": "intramuscular, 30 mg/kg of parent compound", "measurement": "AUC(0-t)", "result": "204 ± 42.9 ng·h/mL"}
{"Structure (SMILES)": "N#Cc1ccc2c(c1)[C@H]1CCCN(C(=O)c3ccc4[nH]cnc4c3)[C@H]1C2", "test system": "human", "setting": "240 mg, day 7", "how to read": "relative to: baseline", "measurement": "cortisol level change", "result": "-103 nmol/L"}
